Results from different studies.
Compare with care: the assays were run in different laboratories. Several values in a cell are separate wells, animals, samples, runs or records.

With `Cn1cnc2c(F)c(Nc3ccc(Br)cc3F)c(C(=O)NOCCO)cc21` the viability was 82.6% (A549; 0.1562 µM, 72 h).
With `C[C@H](NC(=O)C(=O)Nc1ccccc1C(C)(C)C)C(=O)N[C@@H](CC(=O)O)C(=O)COc1c(F)c(F)cc(F)c1F` the viability was 88.7% and 81.6% (EA.hy926; apoptosis, CellTiter-Glo; concentration not given, with: TRAIL).
The viability of `Cc1cccc(-c2[nH]c(CNc3ccccc3F)nc2-c2ccc3ncnn3c2)n1` is reported as 16% (bone marrow CD138+ myeloma cells; XTT; 1.2 µM, phenol red-free RPMI).
`OCC(O)c1ccc(O)c(O)c1` (racemic): “z-scored log2 fold change” 0.524 (binding, equilibrium dialysis LC-MS; 5 µM, thermostabilized A2AR-BRIL construct; reference: no-protein control, direction not given).
`COc1ccc(-n2nc(C(C)=O)s/c2=N\N=C(/C)c2ccc(NC(=O)c3ccc(C)cc3)cc2)cc1` gave a viability of 85.5% (MCF7; 0.078 µM).
Under “z-scored log2 fold change”, `CC(O)CC(=O)SCCNC(=O)CCNC(=O)[C@H](O)C(C)(C)COP(=O)(O)OP(=O)(O)OC[C@H]1O[C@@H](n2cnc3c(N)ncnc32)[C@H](O)[C@@H]1OP(=O)(O)O` (stereo partly shown) is recorded as -0.576 (binding, equilibrium dialysis LC-MS; 5 µM, thermostabilized A2AR-BRIL construct; reference: no-protein control, direction not given).
With `O=C(NOC[C@H](O)CO)c1ccc(F)c(F)c1Nc1ccc(I)cc1F` the viability was 34.5% (A549; 5 µM, 72 h).
With `CC(=O)c1nn(-c2ccc(Cl)cc2)/c(=N/N=C(\C)c2ccc(NC(=O)c3ccc(C)cc3)cc2)s1` the viability was 99.8% (MCF7; 0.156 µM).
The viability of `Nc1ncnc2c1ncn2[C@@H]1O[C@H](CO)[C@@H](O)[C@H]1O` is reported as 70.4 a.u. and 69.2 a.u. and 61.6 a.u. (activated human T cells; 31.6 µM, 72 h; higher = more viable cells).
For `Cc1ccc(CNC(=O)Cn2cc(CSc3nc4ccccc4[nH]3)nn2)cc1`, the viability was 40% (Caco-2; MTT; 15.6 ppm).

Excerpt of the above:
With `C[C@H](NC(=O)C(=O)Nc1ccccc1C(C)(C)C)C(=O)N[C@@H](CC(=O)O)C(=O)COc1c(F)c(F)cc(F)c1F` the viability was 88.7% and 81.6% (EA.hy926; apoptosis, CellTiter-Glo; concentration not given, with: TRAIL).
The viability of `Cc1cccc(-c2[nH]c(CNc3ccccc3F)nc2-c2ccc3ncnn3c2)n1` is reported as 16% (bone marrow CD138+ myeloma cells; XTT; 1.2 µM, phenol red-free RPMI).
